# Results from different studies.
# Each line is one published result; not all experiments were run side by side. Numbers after ± are the reported error.
# Oprk1: Kappa-type opioid receptor (Oprk1, Rattus norvegicus, UniProt P34975)
# Sequence of UniProt P34975 (whole entry, looked up): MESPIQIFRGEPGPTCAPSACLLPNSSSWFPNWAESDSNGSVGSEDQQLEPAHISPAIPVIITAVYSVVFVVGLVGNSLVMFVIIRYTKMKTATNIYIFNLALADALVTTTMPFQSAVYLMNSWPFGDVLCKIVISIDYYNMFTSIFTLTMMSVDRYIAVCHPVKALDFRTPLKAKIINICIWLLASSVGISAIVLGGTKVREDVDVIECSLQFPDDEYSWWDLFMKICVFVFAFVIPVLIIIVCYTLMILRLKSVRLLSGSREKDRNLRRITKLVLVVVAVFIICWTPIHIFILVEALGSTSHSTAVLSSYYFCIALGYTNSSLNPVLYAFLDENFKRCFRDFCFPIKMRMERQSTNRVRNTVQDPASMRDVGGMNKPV
# Sequence of UniProt P0C0V0 (whole entry, unmodified, looked up): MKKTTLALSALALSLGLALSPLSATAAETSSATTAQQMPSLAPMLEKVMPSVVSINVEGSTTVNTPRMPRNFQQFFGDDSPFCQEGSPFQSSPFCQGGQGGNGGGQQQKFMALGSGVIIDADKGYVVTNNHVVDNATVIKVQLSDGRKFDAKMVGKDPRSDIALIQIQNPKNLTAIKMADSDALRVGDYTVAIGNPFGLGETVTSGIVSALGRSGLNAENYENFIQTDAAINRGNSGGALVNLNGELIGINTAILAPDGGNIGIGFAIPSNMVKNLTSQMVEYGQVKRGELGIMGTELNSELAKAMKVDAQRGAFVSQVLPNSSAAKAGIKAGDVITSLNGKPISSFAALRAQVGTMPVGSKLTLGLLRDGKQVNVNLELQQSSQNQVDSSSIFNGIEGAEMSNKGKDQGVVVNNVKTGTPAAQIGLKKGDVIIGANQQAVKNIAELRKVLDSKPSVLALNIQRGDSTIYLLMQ
# Sequence of UniProt P40818 (whole entry, looked up): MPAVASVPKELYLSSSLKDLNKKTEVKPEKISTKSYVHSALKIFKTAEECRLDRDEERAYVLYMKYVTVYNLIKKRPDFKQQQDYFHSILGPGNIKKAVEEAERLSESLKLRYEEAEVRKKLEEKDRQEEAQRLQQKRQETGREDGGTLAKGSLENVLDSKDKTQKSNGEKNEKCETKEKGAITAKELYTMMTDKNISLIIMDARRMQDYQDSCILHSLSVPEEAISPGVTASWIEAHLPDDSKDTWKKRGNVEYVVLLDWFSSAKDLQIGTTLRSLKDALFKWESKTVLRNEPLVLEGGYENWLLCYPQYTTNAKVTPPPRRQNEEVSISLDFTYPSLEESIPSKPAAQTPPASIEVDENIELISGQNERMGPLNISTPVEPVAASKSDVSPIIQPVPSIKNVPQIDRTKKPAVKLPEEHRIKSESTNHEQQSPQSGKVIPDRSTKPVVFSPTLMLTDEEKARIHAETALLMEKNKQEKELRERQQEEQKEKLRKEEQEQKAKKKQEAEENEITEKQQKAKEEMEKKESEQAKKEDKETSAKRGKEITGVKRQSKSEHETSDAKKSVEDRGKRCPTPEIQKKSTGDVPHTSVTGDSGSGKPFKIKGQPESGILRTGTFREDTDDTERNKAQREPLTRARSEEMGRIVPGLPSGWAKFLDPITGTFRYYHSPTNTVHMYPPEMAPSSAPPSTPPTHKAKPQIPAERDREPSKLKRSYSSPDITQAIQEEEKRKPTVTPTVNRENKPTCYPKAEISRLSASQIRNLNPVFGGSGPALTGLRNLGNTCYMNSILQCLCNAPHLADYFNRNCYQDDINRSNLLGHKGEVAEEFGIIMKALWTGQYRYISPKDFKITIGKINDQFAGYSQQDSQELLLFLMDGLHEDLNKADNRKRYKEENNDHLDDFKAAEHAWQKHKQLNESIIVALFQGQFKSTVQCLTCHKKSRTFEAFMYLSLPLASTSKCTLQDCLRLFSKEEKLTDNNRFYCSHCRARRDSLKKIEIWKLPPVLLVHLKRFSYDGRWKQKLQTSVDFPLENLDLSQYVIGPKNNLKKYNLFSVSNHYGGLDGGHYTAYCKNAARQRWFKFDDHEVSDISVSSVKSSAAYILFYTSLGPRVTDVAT
# Sequence of UniProt P00811 (whole entry, looked up): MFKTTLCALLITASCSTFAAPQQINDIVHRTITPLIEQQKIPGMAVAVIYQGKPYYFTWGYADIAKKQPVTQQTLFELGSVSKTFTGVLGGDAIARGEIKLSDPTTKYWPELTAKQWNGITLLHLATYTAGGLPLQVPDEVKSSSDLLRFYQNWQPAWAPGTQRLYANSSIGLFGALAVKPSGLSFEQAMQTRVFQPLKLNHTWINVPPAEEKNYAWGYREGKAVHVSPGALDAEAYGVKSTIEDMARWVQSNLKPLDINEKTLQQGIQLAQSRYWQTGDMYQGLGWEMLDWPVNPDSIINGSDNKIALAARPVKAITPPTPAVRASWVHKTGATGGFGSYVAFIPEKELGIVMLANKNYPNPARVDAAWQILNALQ
# Sequence of UniProt Q96SW2 (whole entry, looked up): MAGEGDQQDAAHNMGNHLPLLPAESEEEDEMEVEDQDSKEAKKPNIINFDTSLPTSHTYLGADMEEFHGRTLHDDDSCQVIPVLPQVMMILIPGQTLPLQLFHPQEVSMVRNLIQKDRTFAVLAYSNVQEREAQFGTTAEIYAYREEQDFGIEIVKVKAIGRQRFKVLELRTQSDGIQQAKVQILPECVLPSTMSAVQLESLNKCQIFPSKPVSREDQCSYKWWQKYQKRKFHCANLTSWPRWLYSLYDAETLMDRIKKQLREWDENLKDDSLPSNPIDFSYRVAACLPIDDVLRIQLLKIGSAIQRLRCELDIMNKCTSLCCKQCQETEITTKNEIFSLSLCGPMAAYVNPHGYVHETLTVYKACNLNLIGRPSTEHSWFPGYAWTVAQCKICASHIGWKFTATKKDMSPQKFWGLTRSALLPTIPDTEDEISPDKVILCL
# Sequence of UniProt P70343 (whole entry, looked up): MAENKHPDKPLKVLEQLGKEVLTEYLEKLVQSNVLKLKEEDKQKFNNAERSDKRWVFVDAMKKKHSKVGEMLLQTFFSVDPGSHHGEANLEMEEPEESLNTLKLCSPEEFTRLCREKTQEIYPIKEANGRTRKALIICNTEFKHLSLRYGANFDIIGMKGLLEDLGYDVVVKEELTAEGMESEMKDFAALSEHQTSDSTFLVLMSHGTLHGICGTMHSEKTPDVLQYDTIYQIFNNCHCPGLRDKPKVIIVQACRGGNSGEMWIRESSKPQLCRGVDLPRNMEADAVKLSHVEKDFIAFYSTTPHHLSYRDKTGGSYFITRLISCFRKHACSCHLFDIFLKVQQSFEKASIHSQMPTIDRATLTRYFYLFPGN
# Sequence of UniProt P56817 (whole entry, looked up): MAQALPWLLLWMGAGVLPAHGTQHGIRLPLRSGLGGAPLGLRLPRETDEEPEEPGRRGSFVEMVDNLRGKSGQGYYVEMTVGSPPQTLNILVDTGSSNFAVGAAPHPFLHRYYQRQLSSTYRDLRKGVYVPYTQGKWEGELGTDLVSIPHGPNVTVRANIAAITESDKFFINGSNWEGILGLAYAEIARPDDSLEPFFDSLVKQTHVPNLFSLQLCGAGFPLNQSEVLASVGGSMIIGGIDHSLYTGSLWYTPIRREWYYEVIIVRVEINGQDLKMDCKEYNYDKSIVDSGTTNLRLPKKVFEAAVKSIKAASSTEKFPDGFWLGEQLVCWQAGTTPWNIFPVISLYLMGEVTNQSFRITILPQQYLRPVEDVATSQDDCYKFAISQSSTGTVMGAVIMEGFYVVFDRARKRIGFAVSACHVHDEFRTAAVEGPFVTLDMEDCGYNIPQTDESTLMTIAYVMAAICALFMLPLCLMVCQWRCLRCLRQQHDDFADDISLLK
# Sequence of UniProt Q9UQB9 (whole entry, looked up): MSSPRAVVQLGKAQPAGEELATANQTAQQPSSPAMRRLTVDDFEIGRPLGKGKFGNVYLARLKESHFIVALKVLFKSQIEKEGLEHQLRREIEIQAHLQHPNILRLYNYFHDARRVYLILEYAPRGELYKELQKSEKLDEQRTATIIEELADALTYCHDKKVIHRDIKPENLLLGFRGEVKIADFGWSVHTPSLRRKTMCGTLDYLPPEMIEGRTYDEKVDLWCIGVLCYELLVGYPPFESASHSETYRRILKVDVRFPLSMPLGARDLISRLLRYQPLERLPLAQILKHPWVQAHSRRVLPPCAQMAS
Structure (SMILES),target,test,test system,setting,how to read,measurement,result
CC(C)C[C@H](NC(=O)CNC(=O)[C@@H](NC(=O)[C@H](CO)NC(=O)[C@H](CCCCN)NC(=O)[C@H](CC(C)C)NC(=O)[C@H](CC(=O)O)NC(=O)[C@H](CCC(=O)O)NC(=O)[C@H](CC(C)C)NC(=O)[C@@H](NC(=O)C1CC(C)(C)N([O])C1(C)C)C(C)C)C(C)C)C(=O)N[C@@H](Cc1ccccc1)C(=O)O (stereo partly drawn),"Rhodopsin, photoactivated (Meta II) (RHO, Bos taurus, UniProt P02699)",EPR,,,,dissociation time constant,8 min
COc1ccc2cc1Oc1ccc(cc1)C[C@H]1c3cc(c(OC)cc3CC[N@+]1(C)Cc1ccc3ccc4cccc5ccc1c3c45)Oc1c(OC)c(OC)cc3c1[C@H](C2)[N@@+](C)(Cc1ccc2ccc4cccc5ccc1c2c45)CC3,poly(dG)·poly(dC) 18-bp dsDNA,"DNA binding, ethidium bromide displacement","phosphate buffer, 10% DMSO","pH 7.2, 25 °C, dsDNA 10 µM, 10 mM NaCl, added: ethidium bromide 5 µM",,Stern-Volmer constant,8260 M⁻¹
CCN(Cc1ccccc1)C(=O)CCc1nc(CN2CCN(C(=O)Cc3ccc(OC)c(OC)c3)CC2)no1,"Scn10a (Rattus norvegicus, UniProt Q62968)",whole-cell patch clamp,rat DRG neurons,1 µM,,V1/2 of activation,-20.4 ± 1.47 mV
O=C(N=P12CN3CN(CN(C3)C1)C2)c1ccccn1.[Cl][Pt][Cl],"Albumin (ALB, Homo sapiens, UniProt P02768)","binding, isothermal titration calorimetry",,,relative to: K1 over K2,affinity ratio,~40
C[C@@H](NC(=O)[C@H](Cc1ccccc1)NC(=O)[C@@H](CCCNC(=N)N)NC(=O)[C@H](CCCN)NC(=O)[C@@H]1CNC(=O)c2cc3cc(c2)C(=O)N[C@H](Cc2ccc4ccccc4c2)C(=O)N[C@@H](CO)C(=O)N[C@@H](CC(N)=O)C(=O)N[C@H](Cc2ccc4ccccc4c2)C(=O)N[C@@H](c2ccccc2)C(=O)N[C@@H](CCCCNC3=O)C(=O)N[C@H](Cc2ccccc2)C(=O)N[C@@H](CCC(N)=O)C(=O)N[C@H](CCCNC(=N)N)C(=O)N[C@@H](CCCNC(=N)N)C(=O)N1)C(=O)NCCOCCOCC(=O)NCCOCCOCC(=O)N[C@@H](CCCCNC(=O)c1ccc2c(c1)C(=O)OC21c2ccc(O)cc2Oc2cc(O)ccc21)C(N)=O,"MDM2 (Homo sapiens, UniProt Q00987)",fluorescence polarization,,concentration not given,,binding,no binding
Cc1ccc(N2CC3CCC(C2)N3C)cc1C(=O)N[C@H](C)c1cc(-c2cnn(C)c2)nc2ccccc12,"USP8 (Homo sapiens, UniProt P40818)",enzyme activity,,concentration not given,,inhibition,no inhibition
O=C(O)COc1ccc(Cl)cc1,"Chloride channel protein (Torpedo marmorata, UniProt P21564, C212S)","single-channel current, noise analysis",,"20 mM, -80 mV",,lower corner frequency,2.3 Hz
"COC(=O)C1C(OC(c2ccc(Cl)cc2)c2ccc(Cl)cc2)CC2CCC1N2C (single isomer, unassigned)","ATP-binding cassette sub-family C member 8 (ABCC8, Cricetus cricetus, UniProt Q09427)","binding, radioligand displacement",,"inactive if below 75% at 10000 nM, added: [3H]glyburide",,Ki,inactive
CC(C)CC(NC(=O)C(NC(=O)NC(C(=O)O)C(C)C)C1CCNC(=N)N1)C(=O)NCCCNC(C(=O)O)C(OC1OC(CN)C(O)C1O)C1OC(n2ccc(=O)[nH]c2=O)C(O)C1O (stereo not drawn),"mraY (Aquifex aeolicus, UniProt O66465)",isothermal titration calorimetry,,"concentration not given, wild type, added: Mg2+",,binding entropy,-11.5 ± 9.8 cal/mol/K
CC(=O)Oc1ccc(COc2c(C)occc2=O)cc1,porcine liver esterase,conversion,,"50 µM, pH 7.5, room temperature, added: PLE 0.178 U",,kobs,245 ± 8 s⁻¹
Cn1cc(-c2cccc(CN3CCC4(CC3)COc3c4ccc4c3CN([C@H]3CCC(=O)NC3=O)C4=O)c2)cn1,"CRBN/Zinc finger protein Helios (Homo sapiens, UniProt Q96SW2+Q9UKS7)","degrader, flow cytometry",Jurkat,,,Dmax,65%
CC(=O)N[C@@H](Cc1c[nH]c2ccccc12)C(=O)N[C@@H](CCC(=O)O)C(=O)N[C@@H](Cc1c[nH]cn1)C(=O)N[C@@H](CC(=O)O)C(=O)Nc1ccc2c(C)cc(=O)oc2c1,"Caspase-4 (Casp4, Mus musculus, UniProt P70343)",substrate,,concentration not given,,Vmax,1430 ± 73.6 RFU/min
C#CCN(Cc1ccc(NC(=O)CCCCCCC(=O)Nc2ccccc2N)cc1)Cc1c(F)c(F)c(N=[N+]=[N-])c(F)c1F,"HDAC2 (Homo sapiens, UniProt Q92769)",photolabeling,SET-2,,,lowest labeling concentration,≤ 200 nM
CS(C)(=O)=Nc1ccc(-c2ccc(-c3nc4cc(O[C@@H]5CO[C@H]6[C@@H]5OC[C@H]6O)[nH]c4cc3F)cc2)cc1,"PRKAA1/PRKAB1, with gamma1 (Homo sapiens, UniProt Q13131+Q9Y478)","enzyme activity, activator",,"60 min, 50% above basal activity, added: ATP 50 µM",,EC150,0.337 nM
Cc1cccc(Nc2c3c(nc4ccccc24)CCCC3)n1,"ache (Electrophorus electricus, UniProt O42275)","enzyme activity, inhibitor, Ellman",,50 µM,,inhibition,41.3%
CN1CCC(Nc2cccc3c2cc(C#CCNc2ccc(P(C)(C)=O)cc2)n3CC(F)(F)F)CC1,"TP53 (Homo sapiens, UniProt P04637, Y220C)","thermal stabilisation, nano differential scanning fluorimetry",,,relative to: DMSO,ΔTm,4.55 ± 0.1 °C
CCCCCCCCCCCCCCCc1ccc(COP(O)(O)=S)cc1,"Autotaxin (ENPP2, Homo sapiens, UniProt Q13822)",inhibitor,,"10 µM, 2 h, added: FS-3 1 µM",relative to: control,remaining activity,15.2%
c1cnc2c(c1)c1nccnc1c1cccnc12,"TAS2R5 (Homo sapiens, UniProt Q9NYW4)","intracellular calcium, agonist",D9 cells expressing TAS2R5,,,log(Emax/EC50),5.9
CN(C)c1ncnc2c1ncn2[C@@H]1O[C@@H]2COP(=O)(O)O[C@H]3[C@@H](O)[C@H](n4cnc5c(N(C)C)ncnc54)O[C@@H]3COP(=O)(O)O[C@H]2[C@H]1O,ydaO riboswitch wild type (Bacillus subtilis),competition gel-shift,,concentration not given,"relative to: c-di-AMP, higher = weaker binding",binding affinity fold loss,> 910000
N=C(N)NCCC[C@@H]1NC(=O)[C@H](CCCNC(=N)N)NC(=O)[C@H](NC(=O)[C@H](Cc2ccccc2)NC(=O)CNC(=O)CNC(=O)[C@H](Cc2ccc(O)cc2)NCc2ccccc2)CC(=O)NCC[C@@H](C(=O)N[C@@H](CCCNC(=N)N)C(=O)N2CCC[C@H]2C(=O)N[C@@H](CCCCN)C(N)=O)NC1=O,Oprk1,binding,,,relative to: zyklophin,relative affinity,0.24
C[C@]1(COC(=O)Cc2ccc(O)c(O)c2)[C@H](C(=O)O)N2C(=O)/C(=C/c3ccccn3)[C@H]2S1(=O)=O,"OXA-23 (Acinetobacter baumannii, UniProt Q9L4P2)","enzyme activity, inhibitor, absorbance",,,,kinact/KI,140000 M⁻¹ s⁻¹
CCc1cccc2c(C(=O)NC3CCN(C(=O)C(C)C)CC3)c[nH]c12,"Genome polyprotein, 3C protease (rhinovirus B14, UniProt P03303)","protease activity, SAMDI-MS",,,,Hill slope,0.96
CC(=O)NC(Cc1ccc(Br)c(Cl)c1)C(=O)N[C@@H](C)C(=O)N1CCC[C@H]1C(=O)N1CCC[C@H]1C(=O)N[C@@H](CCC(=O)O)C(=O)N[C@@H](Cc1c[nH]cn1)C(=O)N[C@@H](CO)C(=O)N[C@H](C(=O)N[C@@H](C)C(N)=O)[C@@H](C)OP(=O)(O)O (stereo partly drawn),"BRAF (Homo sapiens, UniProt P15056)","enzyme activity, inhibitor",,10 µM,,inhibition,0.16%
CC(=O)NCC(=O)N(C)[C@@H](Cc1ccccc1)C(=O)N[C@@H](Cc1ccccc1)C(=O)N[C@@H](Cc1c[nH]c2ccccc12)C(=O)N[C@@H](CCCNC(=N)N)C(=O)N[C@@H](CC(C)C)C(=O)N[C@@H](CCCNC(=N)N)C(=O)N[C@@H](CCCNC(=N)N)C(=O)N[C@H](C)C(=O)N[C@@H](CCCNC(=N)N)C(=O)N1CCC[C@H]1C(=O)N[C@@H](CCCCN)C(N)=O,Oprk1,agonist,CHO cells,10 µM,relative to: dynorphin A(1-13) amide,adenylyl cyclase activity,83 ± 7%
Cc1sc2c(c1C)C(c1ccc(NC(=O)c3cc([N+](=O)[O-])ccc3F)cc1)=N[C@@H](CC(=O)OC(C)(C)C)c1nnc(C)n1-2,"BRD4 (Homo sapiens, UniProt O60885)",degrader,Jurkat,,,Dmax,97%
O=C1OC(=O)C2C3C=CC(C3)C12 (stereo not drawn),"Beta-lactamase (ampC, Escherichia coli K-12, UniProt P00811)",,,,,ligand efficiency,0.31
CC[C@H](C)[C@H](NC(=O)[C@H](CCC(N)=O)NC(=O)[C@H](CC(C)C)NC(=O)[C@@H](NC(=O)CNC(=O)[C@H](Cc1ccc(O)cc1)NC(=O)[C@H](CC(=O)O)NC(=O)[C@@H](NC(=O)[C@H](CO)NC(=O)CNC(=O)[C@H](CC(=O)O)NC(=O)[C@@H](NC(=O)[C@H](CC(N)=O)NC(=O)[C@H](CCCNC(=N)N)NC(=O)[C@H](CC(N)=O)NC(=O)[C@@H](NC(=O)[C@H](C)NC(=O)[C@H](CCC(N)=O)NC(=O)[C@@H](NC(=O)[C@H](CC(N)=O)NC(=O)[C@H](Cc1ccccc1)NC(=O)[C@H](CC(N)=O)NC(=O)[C@H](CO)NC(=O)[C@H](CCC(=O)O)NC(=O)[C@H](Cc1ccccc1)NC(=O)[C@H](CCCCN)NC(=O)[C@H](C)NC(=O)[C@H](C)NC(=O)[C@H](CO)NC(=O)[C@@H](NC(=O)[C@H](Cc1c[nH]c2ccccc12)NC(=O)[C@H](CC(N)=O)NC(=O)CNC(=O)[C@H](CC(C)C)NC(=O)[C@H](CO)NC(=O)[C@H](Cc1ccc(O)cc1)NC(=O)CNC(=O)[C@H](CCCNC(=N)N)NC(=O)[C@H](Cc1ccc(O)cc1)NC(=O)[C@H](CC(N)=O)NC(=O)[C@@H](N)CC(=O)O)C(C)C)[C@@H](C)O)[C@@H](C)O)[C@@H](C)O)[C@@H](C)O)[C@@H](C)CC)C(=O)O,"Periplasmic serine endoprotease DegP (degP, Escherichia coli, UniProt P0C0V0, C83S/C95S/N322C)",FRET,,"5 µM, added: protein 500 nM",,cage assembly half-life,19.8 ± 1.9 s
Cc1cc(Nc2nc(C[C@@]3(C(=O)O)CCN(Cc4cccc(Cl)c4F)[C@H](C)C3)cc(C)c2F)[nH]n1,"Aurora kinase C (AURKC, Homo sapiens, UniProt Q9UQB9)",Western blot,NCI-H446,up to 2 µM,,phosphorylation inhibition,no inhibition
CCCC[C@H](NC=O)C(=O)N[C@@H](CCCC)C(=O)N[C@@H](Cc1c[nH]c2ccccc12)C(=O)N[C@@H](CCC(=O)O)C(=O)N[C@@H](CC(=O)O)C(=O)N[C@@H](Cc1c[nH]c2ccccc12)C(=O)N[C@H](C(=O)NCC(=O)N[C@@H](Cc1c[nH]c2ccccc12)C(=O)N[C@H](C(=O)O)[C@@H](C)CC)C(C)C,"FPR1 (Homo sapiens, UniProt P21462, N192K)",receptor downregulation,CHO cells,,,Ki/EC50 ratio,> 10 fold
CN(C)c1ccc(/C=C/C(=O)c2ccc(N3CCNCC3)cc2)cc1,"Beta-secretase 1 (BACE1, Homo sapiens, UniProt P56817)","enzyme activity, inhibitor, fluorescence",,10 µM,,remaining activity,49.3%

# A few entries again:
Structure (SMILES),target,test,test system,setting,how to read,measurement,result
COc1ccc2cc1Oc1ccc(cc1)C[C@H]1c3cc(c(OC)cc3CC[N@+]1(C)Cc1ccc3ccc4cccc5ccc1c3c45)Oc1c(OC)c(OC)cc3c1[C@H](C2)[N@@+](C)(Cc1ccc2ccc4cccc5ccc1c2c45)CC3,poly(dG)·poly(dC) 18-bp dsDNA,"DNA binding, ethidium bromide displacement","phosphate buffer, 10% DMSO","pH 7.2, 25 °C, dsDNA 10 µM, 10 mM NaCl, added: ethidium bromide 5 µM",,Stern-Volmer constant,8260 M⁻¹
CC(=O)NCC(=O)N(C)[C@@H](Cc1ccccc1)C(=O)N[C@@H](Cc1ccccc1)C(=O)N[C@@H](Cc1c[nH]c2ccccc12)C(=O)N[C@@H](CCCNC(=N)N)C(=O)N[C@@H](CC(C)C)C(=O)N[C@@H](CCCNC(=N)N)C(=O)N[C@@H](CCCNC(=N)N)C(=O)N[C@H](C)C(=O)N[C@@H](CCCNC(=N)N)C(=O)N1CCC[C@H]1C(=O)N[C@@H](CCCCN)C(N)=O,Oprk1,agonist,CHO cells,10 µM,relative to: dynorphin A(1-13) amide,adenylyl cyclase activity,83 ± 7%
Cn1cc(-c2cccc(CN3CCC4(CC3)COc3c4ccc4c3CN([C@H]3CCC(=O)NC3=O)C4=O)c2)cn1,"CRBN/Zinc finger protein Helios (Homo sapiens, UniProt Q96SW2+Q9UKS7)","degrader, flow cytometry",Jurkat,,,Dmax,65%
CN1CCC(Nc2cccc3c2cc(C#CCNc2ccc(P(C)(C)=O)cc2)n3CC(F)(F)F)CC1,"TP53 (Homo sapiens, UniProt P04637, Y220C)","thermal stabilisation, nano differential scanning fluorimetry",,,relative to: DMSO,ΔTm,4.55 ± 0.1 °C
